Experimental data from different studies.
A part holds a random share of what one study measured.

Sample 1 — technique: RNA Bind-n-Seq; molecule type: RNA; sample: in vitro; concentration: not given; relative to: input RNA pool; direction: higher = stronger binding
Target: RING finger protein unkempt homolog, zinc fingers 1-6, GST-SBP tag (UNK, Homo sapiens, UniProt Q9C0B0, residues 30-357)
Setting: RNA with constant flanks, human and mouse sites, ends assumed
Shared flanks, not repeated: GGGAGUUCUACAGUCCGACGAUC … CAACAGAGGAUUGAGCAUCA
Residues (chain): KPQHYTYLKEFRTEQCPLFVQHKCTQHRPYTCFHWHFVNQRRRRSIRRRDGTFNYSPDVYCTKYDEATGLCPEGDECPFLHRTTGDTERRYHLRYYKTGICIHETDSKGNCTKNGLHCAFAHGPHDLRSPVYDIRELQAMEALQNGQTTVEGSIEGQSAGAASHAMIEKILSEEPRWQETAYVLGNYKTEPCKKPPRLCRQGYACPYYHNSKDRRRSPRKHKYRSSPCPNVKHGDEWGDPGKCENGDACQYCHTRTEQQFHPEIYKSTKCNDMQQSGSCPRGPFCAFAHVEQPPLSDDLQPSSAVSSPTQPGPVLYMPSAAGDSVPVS
`UCUUUAAGAAUCUUUGUUUGGCUGUUACUACUUUAUUUCAUGCAAGUUAUAGCAAUUGUCUUAUAUUUGAUGAUGCCUAUUGUGAACAUAAGUGAAGUACUUGGACCCUUGUGCCUUAUG` has a bound/input enrichment of 0.327 ratio.
The bound/input enrichment of `UACCCGCCAUAUAAUCAGUAUCCCAAUGGGUCAGCCAACGGUUUUGGUGCAGUUAGAAACUUUAGCCCUACUGACUAUUACCAUUCAGAAAUUCCAAACACAAGACCACAUGAAAUUCUG` is reported as 0.596 ratio.
The bound/input enrichment of `CACCGGAGGCAUUUUCCCAACUGUCCAUUUUUGGAAAAUUCUCUAGAAACUCUGAGGUUUAGCAUUUCAAAUCUGAGCAUGCAGACACAUGCAGCUCGAAUGAGAACAUUUAUGUACUGG` is reported as 0.234 ratio.
The bound/input enrichment of `AGAUUCGUUCAGAAAUGCGUUCUUCCAUUAAAUGAGGAUAGUCCGUUGAUGUAUCAGCCACAAAAAAUGGACUUGACUAUGCACUCAGCCUUAGAUUGUAAGCAAAAGAAAUCAAGGUCA` is reported as 0.0587 ratio.
`AGGUCCAGUGUAUCUAAGGUGCCCUUAUUGCUUCCAAAUGUUUCUGCUUUGGAAUCUCAAAUAGAAAUGGGCAACAUAGUUAAACCCAAAGUACUUACGAAAGAAGCAGAGGAAAAACUU` gave a bound/input enrichment of 0.201 ratio.
`GGGGUGUUCCAGUCUACAGACACCUGCUAUGUCCUGUCCUUCGCAAUCAUAAUGCUGAACACCAGCCUACACAACCCCAAUGUCAAAGACAAGCCUACGGUGGAGAGAUUCAUCGCCAUG` gave a bound/input enrichment of 0.168 ratio.
The bound/input enrichment of `GAAAAUCUUCUUAAUUGGACAAGAGAUAGCCAAAACAAGCUUAUAUUUAUGGAGCGUAUAGAAAAAUAUGCACUUUUCAAAAACCCACAGAAUUAUCUUUUGGGGAAAAAAGAAACAGCU` is reported as 3.77 ratio.
For `UUACACUGUGGAAUCCCAGGGAGCAUUGUUUAGUUUAGGGGUAUAACUAGAAACACAACAAAUUCCCAGGAAAGCUCACUGGAGACUAUCAAGAUUUUGAUAGAGUGAGAUCUAUUCAUG`, the bound/input enrichment was 0.468 ratio.
With `CACAAGAUGGAGCAGGAAAUGACCCGGUUACAUCGCAGAGUGUCAGAGGUGGAGGCUGUGCUUAGUCAGAAGGAGGUGGAGCUGAAGGCCUCUGAGACUCAGAGAUCCCUCCUGGAGCAG` the bound/input enrichment was 0.133 ratio.
With `UUGAAUGAUUUUGGCUUCAUGAUCUUUCACUCACCAUAUUGUAAACUGGUUCAGAAAUCUCUAGCUCGGAUGUUGCUGAAUGACUUCCUUAAUGACCAGAAUAGAGAUAAAAAUAGUAUC` the bound/input enrichment was 1.73 ratio.
The bound/input enrichment of `AAGGAACUUGCAUCAGCACUGAAGUCAGCCUUAUCUGGCCACCUGGAGACGGUGAUUUUGGGCCUAUUGAAGACACCUGCUCAGUAUGACGCUUCUGAGCUAAAAGCUUCCAUGAAGGGG` is reported as 0.0752 ratio.

Sample 2 — technique: RNA Bind-n-Seq; molecule type: RNA; sample: in vitro; concentration: 365 nM; relative to: no-protein control; direction: higher = stronger binding
Target: RNA binding protein fox-1 homolog 2, RRM domain, GST-SBP tag (RBFOX2, Homo sapiens, UniProt O43251-10, residues 100-194)
Setting: natural RNA segment, single round, ends assumed
Shared flanks, not repeated: GGGAGUUCUACAGUCCGACGAUC … UGGAAUUCUCGGGUGCCAA
Target sequence (chain): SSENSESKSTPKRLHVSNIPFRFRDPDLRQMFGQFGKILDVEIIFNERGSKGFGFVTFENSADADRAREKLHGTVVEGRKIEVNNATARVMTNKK
Under “RBNS enrichment (R)”, `GAGCUUGUGGUGUGCUUUGCAGGAGGACUUGAAGCAGAGUUCACCAGUGAGCUCAGGUGUCUCAAAGAAGGGUGGAAGUUCUAAUGUCUGUUAGCUACCCAUAAGAAUGC` is recorded as 1.96.
Under “RBNS enrichment (R)”, `UCUCACCAUCACUGUCCUCCAGGGGCCUCGGACUUUUAGUACUCAAGGCAUGAUGUGGCAGUAGCUGCUUCCCCUACCACUAGCUGCCCCCUCAUGGUCGUCUGGGGGAC` is recorded as 0.918.
Under “RBNS enrichment (R)”, `AAGCUUUUCUCUAGCCUACAGUAGGGUCGAUCUGCCGAGCUGCUGAAUAACCCUGCUUGAUUUUAGCAACAAGAGACAAUCCAUGCCAUGCUUUUAUCCUGAGAAACCUG` is recorded as 0.9.
For `CAUUACUUUUGAAAUUUGCAGGACGAAGGGCAUGCUUUUGGUUUGCUGUAAGAUUGUAUUCUGUAUAUAUGUUUUCAUGUAAAUAAAUGAAAAUCUAUAUCAGAGUUAUA`, “RBNS enrichment (R)” read 4.84.
Under “RBNS enrichment (R)”, `UUGGUAAGUAUUCCUUAGGUUUUUCUUUGAAAACCUGGGAUUGAGAGGUUGAUGAAUGGAAAUUCUUUCACUUCAUUAUAUGCAAGUUUUCAAUAAUUAGGUCUAAGUGG` is recorded as 0.593.
`UUUUCAGUGAUCAGAAGCAGCAGUUAUUUGAGUGUAUGAAUGGAAUGAUGAUCACUGUGCUAUAAUGUACUGAAACCACCAUAUUACAGAAAUAUUUACUACAUAUUUUC` — result for “RBNS enrichment (R)”: 7.41.
For `GUCCUGGAAAGUUUGGAAAGUUUCUCAAGGCUUUAAAUAAUUCUAAUCAUAGCUACUUCAGUUUUGUGUAUCUGUUCUCUGCAGAUGGUUUGAAACUGUAUAGGAAGAAC`, “RBNS enrichment (R)” read 0.334.
For `CUGGGGCCUGGCUGCAGAGACCUGCUCUUGAAUAGGGCUGCCUUUGGGAUCAGGGAGCCGAGCAUACUGGGCAAGGCUCAUCAUGUUCCUUUGUGGAAGUGGUUACUUGG`, “RBNS enrichment (R)” read 0.546.
`UCUGAGAACCACUUGUCCCAGUAUGACACCUCUUACUAUCUCAGCAGCCUGUGCAGGGUCUCUGUCCUCAGAGCUCCAGACACCAGCAUCCUACUCUCAAGGAUGAAGUC` — result for “RBNS enrichment (R)”: 0.472.
`ACGAGGACAGGACCGUGAGAGUCCCCAUGAUGUCAGAUCCUAAGGCCAUCUUACGAUACGGCUUGGACUCUGAUCUCAACUGCAAGAUUGCCCAGCUGCCCUUGACAGGA` — result for “RBNS enrichment (R)”: 1.12.
For `UCUUAAGCAGGUGGGAGGCAGGGAAGGGUGCACCAGCGUGUCUUUCCCUGACUUUACAUGGUGUUUUGUUAAUGCAAAUCCGGGAAGCAGGUGUGAUUGCUUUUUGCUCG`, “RBNS enrichment (R)” read 0.75.
`UGUACUGCCUGAGUUGUGCCUCUUGUGUGCUAGAUUAAAAGUGAGACAGAGACUUGACUUGAUCCUCUGAGCUCAAGCUAUUGAGCUGGUAGUGGCAGAGGACUGAGGGU` — result for “RBNS enrichment (R)”: 0.397.

Sample 3 — technique: protein-binding microarray; molecule type: double-stranded DNA, one strand shown; sample: in vitro; concentration: 250 nM; setting: 60-bp whole probe; together with: salmon DNA 0.4 mg/ml; relative to: random background probes; direction: higher = stronger binding; shared flanks, not repeated: GCCTAGCAC … GTCTTGATTCGCTTGACGCTGCTG
Target: Interferon regulatory factor 7, full length, phosphomimetic (IRF7, Homo sapiens, UniProt Q92985, residues 1-503, S101K/S471D/S472D/S475D/S476D/S477D/S483D/S484D/S487D)
Sequence of UniProt Q92985 (whole entry, unmodified, looked up): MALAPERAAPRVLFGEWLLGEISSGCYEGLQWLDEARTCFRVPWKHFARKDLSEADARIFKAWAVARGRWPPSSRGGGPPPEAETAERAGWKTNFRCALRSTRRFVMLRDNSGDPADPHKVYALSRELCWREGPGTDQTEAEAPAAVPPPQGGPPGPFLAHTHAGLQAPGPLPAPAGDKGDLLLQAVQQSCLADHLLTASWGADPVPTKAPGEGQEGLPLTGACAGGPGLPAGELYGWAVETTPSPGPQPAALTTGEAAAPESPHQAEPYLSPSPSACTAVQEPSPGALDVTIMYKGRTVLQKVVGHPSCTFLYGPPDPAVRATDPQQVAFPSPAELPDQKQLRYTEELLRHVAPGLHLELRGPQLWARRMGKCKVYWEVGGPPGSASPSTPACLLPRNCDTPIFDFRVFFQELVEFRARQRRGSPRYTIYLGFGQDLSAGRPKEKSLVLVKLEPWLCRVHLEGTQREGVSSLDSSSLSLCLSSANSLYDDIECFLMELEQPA
`TCACTTCTATAGGCTAGAACTGTGCTA` has a log fluorescence of 0.385 z-score.
With `GACGGTCTCGGACTGAGGACGTGCTAG` the log fluorescence was -0.089 z-score.
`CTGGTTTTTACTTTCTGAATGTGCTAG` gave a log fluorescence of 1.98 z-score.
`TCAATTGTCTCTGTCCCACTGTGCTAG` has a log fluorescence of 0.839 z-score.
`TTAGATATCAGACTAGATTAGTGCTAG` has a log fluorescence of 0.171 z-score.
For `TTAGGTCTCGGGATCGGTTAGTGCTAG`, the log fluorescence was 1.62 z-score.
`TTCGATTTCAGTTCCGATTAGTGCTAG` has a log fluorescence of 1.75 z-score.
For `TTTGGACTGGGACTGGGTTAGTGCTAG`, the log fluorescence was -0.241 z-score.
For `TTCGGTCTCCTTTTCCTTTAGTGCTAG`, the log fluorescence was 2.14 z-score.
For `TTAGTTCTCCTACTGCTTTAGTGCTAG`, the log fluorescence was 0.743 z-score.
`TTAGATTTCGGACTGGGTTAGTGCTAG` gave a log fluorescence of 0.412 z-score.
For `GACGGTATCGGGTTCCGGGACGTGCTA`, the log fluorescence was 1.77 z-score.
`TTAGGTTTCGACTATCGGTTGGTGCTA` gave a log fluorescence of 5.01 z-score.
`TTAGATTTCAGTCTCGAGTAGTGCTAG` has a log fluorescence of 0.749 z-score.
The log fluorescence of `TCAATTGTGCAATCTTAAACTGTGCTA` is reported as 0.149 z-score.
For `TCAGTGCTCATGCTTCTTACTGTGCTA`, the log fluorescence was -0.579 z-score.
The log fluorescence of `TTAGATATCGGGTTTGGATTAGTGCTA` is reported as 0.123 z-score.
`GATGAACTGAGTCTCGAGACGTGCTAG` gave a log fluorescence of 0.393 z-score.
The log fluorescence of `GCTTTCCCCTTGGACTCTTTGTGCTAG` is reported as 4.02 z-score.
With `TTAGGACTTCTTTTCCTTTAGTGCTAG` the log fluorescence was 1.15 z-score.
For `GACGGTATCGGGCATCGGGACGTGCTA`, the log fluorescence was -0.645 z-score.
`GCTTCTATGTAGTTGATGAAGTGCTAG` has a log fluorescence of 1.06 z-score.
With `GACGGTCTACTTATCCTGACGTGCTAG` the log fluorescence was -0.0692 z-score.
The log fluorescence of `GACGGTTTCGGGTCCGGGACGTGCTAG` is reported as 6.94 z-score.
`GACGAACTGAGTGTCGAGACGTGCTAG` has a log fluorescence of -0.372 z-score.

Sample 4 — technique: universal PBM; molecule type: double-stranded DNA, one strand shown; sample: in vitro; concentration: not given; direction: higher = stronger binding
Target: Sal-like protein 4, full length isoform B (SALL4, Homo sapiens, UniProt Q9UJQ4-2, residues 1-616)
Setting: 8-mer, flanks averaged, mean of replicates
`AGATACTC` gave an E-score of 0.0899.
For `CCTTACCC`, the E-score was -0.191.
The E-score of `CCTTAAGC` is reported as -0.104.
For `AAACTCTA`, the E-score was 0.131.
`CTCGGCAG` has an E-score of -0.209.
For `CGGTCATA`, the E-score was 0.161.
With `AGTTTGCG` the E-score was -0.173.
`ACGTTTTC` has an E-score of 0.174.
`AGAAGGGC` has an E-score of -0.287.
The E-score of `GTTAAAAA` is reported as 0.228.
`CACGGATG` has an E-score of 0.0281.
With `GATTTCCA` the E-score was 0.0212.
With `ATTTTGAG` the E-score was 0.197.
`AGGAGGAA` has an E-score of -0.0105.
`AGCATCCT` gave an E-score of -0.111.
`CCGCCAAG` has an E-score of -0.223.
The E-score of `CTTGTTAC` is reported as 0.118.
The E-score of `CGTGTCTC` is reported as 0.00716.
With `ATCCCGGC` the E-score was -0.198.
For `GACGCGCC`, the E-score was -0.249.
`AGCCAGCA` gave an E-score of -0.191.
`CCTGTCAG` gave an E-score of -0.162.
With `GCAGGGAA` the E-score was -0.144.
For `ATCCTATC`, the E-score was 0.179.
`CGGCGCGA` has an E-score of -0.134.

Excerpt of the above (sample 3):
For `GACGGTATCGGGCATCGGGACGTGCTA`, the log fluorescence was -0.645 z-score.
`TTCGATTTCAGTTCCGATTAGTGCTAG` has a log fluorescence of 1.75 z-score.
With `TTAGGACTTCTTTTCCTTTAGTGCTAG` the log fluorescence was 1.15 z-score.
For `TTCGGTCTCCTTTTCCTTTAGTGCTAG`, the log fluorescence was 2.14 z-score.
For `GACGGTATCGGGTTCCGGGACGTGCTA`, the log fluorescence was 1.77 z-score.
`GACGAACTGAGTGTCGAGACGTGCTAG` has a log fluorescence of -0.372 z-score.
`TTAGATATCAGACTAGATTAGTGCTAG` has a log fluorescence of 0.171 z-score.
`GCTTCTATGTAGTTGATGAAGTGCTAG` has a log fluorescence of 1.06 z-score.
The log fluorescence of `TCAATTGTGCAATCTTAAACTGTGCTA` is reported as 0.149 z-score.
